Measured values gathered from unrelated publications.
± gives the spread as reported.
Medium: plasma
Route: oral

Compound = CC(C)[C@H](N)C(=O)NCCCS(=O)(=O)O; host = human; dose = 340 mg capsule; time = day 14; setting = fasted, multiple dosing; AUC(0-24) = 13800 ± 3350 ng·h/mL
Compound = CCS(=O)(=O)N1CC(CC#N)(n2cc(-c3ncnc4[nH]ccc34)cn2)C1; host = healthy Chinese human subjects; dose = 10 mg; setting = single dose, mean; AUC(0-24) = 740 ng·h/mL
Compound = CC(C)(Sc1ccncc1-c1ccc(C#N)c2ccccc12)C(=O)O; host = human; dose = 10 mg once daily; time = day 14; with = febuxostat 40 mg once daily; AUC(0-24) = 107 ng·h/mL
Compound = CC[C@@H]1CN(C(=O)NCC(F)(F)F)C[C@@H]1c1cnc2cnc3[nH]ccc3n12; host = human; dose = 30 mg once daily, multiple doses; time = day 11; setting = extended-release, steady state; AUC(0-24) = 641 ± 177 ng·h/mL
Compound = Cc1nc(Nc2ncc(C(=O)Nc3c(C)cccc3Cl)s2)cc(N2CCN(CCO)CC2)n1; host = human; dose = 100 mg single dose; setting = day 6 fasted, arithmetic mean; with = omeprazole 40 mg daily steady state, 10 h before; AUC(0-24) = 90.6 ± 38.1 ng·h/mL
Compound = Oc1ncnc2[nH]ncc12; host = human male; dose = 300 mg once daily; setting = geometric LS mean; AUC(0-24) = 3690 ng·h/mL
Compound = O=c1[nH]c(=O)c(Cc2cccc(C(F)(F)F)c2)c([C@H]2CC[C@H](c3ccccc3)CC2)[nH]1; host = human; dose = 900 mg once daily; setting = day 1, geometric mean; AUC(0-24) = 4760 ng·h/mL
Compound = CC(C)(Sc1ccncc1-c1ccc(C#N)c2ccccc12)C(=O)O; host = human, male, Japanese; dose = 5 mg; time = day 6; setting = fed, single dose; AUC(0-24) = 60.3 ng·h/mL
Compound = O=C(c1ccc(F)c(F)c1Nc1ccc(I)cc1F)N1CC(O)([C@@H]2CCCCN2)C1; host = human; dose = 100 mg; setting = steady state; AUC(0-24) = 10800 ng·h/mL
Compound = CC(C)[C@@H](CS(=O)(=O)C(C)C)N1C(=O)[C@@](C)(CC(=O)O)C[C@H](c2cccc(Cl)c2)[C@H]1c1ccc(Cl)cc1; host = human; dose = 60 mg; setting = old tablet fasted; AUC(0-24) = 2310 ng·h/mL
Compound = CC(C)c1nc(CN(C)C(=O)N[C@H](C(=O)N[C@@H](Cc2ccccc2)C[C@H](O)[C@H](Cc2ccccc2)NC(=O)OCc2cncs2)C(C)C)cs1; host = HIV-infected humans; dose = 100 mg once daily; with = atazanavir 300 mg; AUC(0-24) = 7590 ng·h/mL
Compound = CCN1C(=O)CNc2ncc(-c3ccc(-c4nc[nH]n4)nc3C)nc21; method = LC-MS, noncompartmental; host = human; dose = 15 mg twice daily; time = first dose; AUC(0-24) = 1360 ng·h/mL
